Results gathered from unrelated publications.
Compare with care: the assays were run in different laboratories. “And” joins repeats or separate records; there may be more than shown. Numbers after ± are the reported error.
Cell line: MDA-MB-231

Compound	observed	mode	technique	time	setting	IC50
COc1ccc2c(c1)NC(=O)CN2c1nc(C)nc2c1CCC2	cell growth	–	MTS	–	–	0.001 to 0.004 µM
CCc1c(C)c2ccc(OCC=Cc3ccccc3)c(C)c2oc1=O	cell viability	–	MTT	–	–	579 µM
COc1cc(C#N)c(Oc2ccccc2C)cc1-n1c(=O)cc(S(=O)(=O)c2ccccc2)[nH]c1=O	–	–	–	–	–	~27.5 µM
O=C1C(=O)N(CCn2ncc3c(=O)[nH]cnc32)c2ccc(Cl)cc21	cell growth	–	SRB	72 h	–	4.59 ± 1.44 µg/mL
C=CCOc1ccc2c(C)c(CC)c(=O)oc2c1C	cell viability	–	MTT	–	–	604 µM
COc1ccc(CNC[C@](O)(COCc2ccc(OC)cc2)[C@@H]2CC[C@@H](C)C[C@H]2OCc2ccc(OC)cc2)cc1	cell growth	inhibitor	MTT	72 h	–	1.65 µM
COc1ccc2c(c1)C(=O)C(=O)N2CCn1cnc2c(N)ncnc21	cell growth	–	SRB	72 h	–	46 ± 10.5 µg/mL
COc1cc(C#N)c(Oc2ccccc2C)cc1-n1c(=O)cc(S(C)(=O)=O)[nH]c1=O	–	–	–	–	–	~30 µM
COc1ccc2c(c1)C(=O)C(=O)N2CCn1ncc2c(=O)[nH]cnc21	cell growth	–	SRB	72 h	–	16.4 ± 4.57 µg/mL
COc1cc(Cl)c(Oc2ccccc2C)cc1-n1c(=O)cc(C(F)(F)F)[nH]c1=O	–	–	–	–	–	~25 µM
C[C@@H]1CC[C@@H]([C@@](O)(CNCc2cccc3ccccc23)COCc2ccccc2)[C@H](OCc2ccccc2)C1	cell growth	inhibitor	MTT	72 h	–	2.59 µM
Cc1ccc(CNC(=O)Cn2cc(CSc3nc4ccccc4[nH]3)nn2)cc1	cell viability	–	MTT	–	–	4.11 µg/mL
C[C@@H]1CC[C@@H]([C@](C)(O)CNCc2ccccc2)[C@H](OCc2ccccc2)C1	cell growth	inhibitor	MTT	72 h	–	3.42 µM
Cc1c(Cc2ccccc2)c(=O)oc2c(C)c(OCC(=O)NN=Cc3ccccc3)ccc12	–	–	MTT	–	–	3.75 µg/mL
CC1=CC(=O)C(C(C)C)=CC1=O	cell growth	–	SRB	48 h	–	no effect
CC(O)[C@@H]1CCCN1C(=O)[C@@H]1CCCN1C(=O)OC(C)(C)C (mixture of isomers)	cell growth	–	sulforhodamine B	–	–	6.88 µM and 8.7 µM and 7.5 µM
N#Cc1cc(F)c(-n2c(=O)cc(C(F)(F)F)[nH]c2=O)cc1Oc1ccccc1	–	–	–	–	–	~30 µM

Compound	observed	mode	technique	time	setting	IC50
CCNC(=S)NNC(=O)COc1ccc2c(C)c(CC)c(=O)oc2c1C	cell viability	–	MTT	–	–	331 µM
COc1cc(C#N)c(Oc2ccccc2C)cc1-n1c(=O)cc(Br)[nH]c1=O	–	–	–	–	–	~30 µM
O=C1NC(=NCc2cccs2)S/C1=C\c1ccc2ncccc2c1	–	–	MTS	–	NCI60 panel	> 10 µM
C[C@@H]1CC[C@@H]([C@@](C)(O)Cn2cnc3ccccc32)[C@H](OCc2ccccc2)C1	cell growth	inhibitor	MTT	72 h	–	27.6 µM
CC(=NNC(=O)COc1ccc2c(C)c(Cc3ccccc3)c(=O)oc2c1C)c1ccc(Br)cc1	–	–	MTT	–	–	25.2 µg/mL
NC(=S)N/N=C1\C(=O)N(CCn2ncc3c(=O)[nH]cnc32)c2ccc(Cl)cc21	cell growth	–	SRB	72 h	–	22.6 ± 4.1 µg/mL
COc1cccc(CNC[C@@](C)(O)[C@@H]2CC[C@@H](C)C[C@H]2OCc2ccccc2)c1	cell growth	inhibitor	MTT	72 h	–	11.7 µM
Cc1c(Cc2ccccc2)c(=O)oc2c(C)c(OCC(=O)NN=Cc3ccc([N+](=O)[O-])cc3)ccc12	–	–	MTT	–	–	11.8 µg/mL
C[C@@H]1CC[C@@H]([C@@](O)(CNCc2ccccc2)COCc2ccc(F)cc2)[C@H](OCc2ccc(F)cc2)C1	cell growth	inhibitor	MTT	72 h	–	2.71 µM
N#Cc1cc(F)c(-n2c(=O)cc(C(F)(F)F)[nH]c2=O)cc1Oc1c(F)cccc1F	–	–	–	–	–	~30 µM
CC(=O)O[C@@]12CO[C@@H]1C[C@H](O)[C@@]1(C)C(=O)[C@H](O)C3=C(C)[C@@H](OC(=O)[C@H](O)[C@@H](NC(=O)OC(C)(C)C)c4ccccc4)C[C@@](O)([C@@H](OC(=O)c4ccccc4)[C@H]21)C3(C)C	cytotoxicity	–	CCK-8	72 h	–	0.136 µM
Nc1ncnc2c1ncn2CCN1C(=O)C(=O)c2cc(F)ccc21	cell growth	–	SRB	72 h	–	27.1 ± 8.34 µg/mL
COc1ccccc1CNC[C@@](C)(O)[C@@H]1CC[C@@H](C)C[C@H]1OCc1ccccc1	cell growth	inhibitor	MTT	72 h	–	12.8 µM
CCc1c(C)c2ccc(OCC(=O)NNC(=S)Nc3ccccc3)c(C)c2oc1=O	–	–	MTT	–	–	37.9 µg/mL
C#CCCCC[C@H](C)C[C@@H](C)C(=O)O	cell growth	–	sulforhodamine B	–	–	141 µM and 149 µM and 204 µM
COc1ccc(CNC[C@](O)(COCc2ccc(F)cc2)[C@@H]2CC[C@@H](C)C[C@H]2OCc2ccc(F)cc2)cc1	cell growth	inhibitor	MTT	72 h	–	1.91 µM
CCc1c(C)c2ccc(OCc3nnc(S)n3N)c(C)c2oc1=O	–	–	MTT	–	–	76 µg/mL

A few entries again:
Compound	observed	mode	technique	time	setting	IC50
COc1ccc2c(c1)NC(=O)CN2c1nc(C)nc2c1CCC2	cell growth	–	MTS	–	–	0.001 to 0.004 µM
COc1cccc(CNC[C@@](C)(O)[C@@H]2CC[C@@H](C)C[C@H]2OCc2ccccc2)c1	cell growth	inhibitor	MTT	72 h	–	11.7 µM
CCNC(=S)NNC(=O)COc1ccc2c(C)c(CC)c(=O)oc2c1C	cell viability	–	MTT	–	–	331 µM
